{"data": "Measured values gathered from unrelated publications"}
{"SMILES": "[O-][N+]1=C(c2ccc(Cl)cc2)C2=NCCCN2c2ccccc21", "organism": "Bacteroides fragilis", "assay": "microbial growth", "system": "ATCC25285", "MIC": "2 µg/mL"}
{"SMILES": "CC[C@H](C)[C@H](NC(=O)[C@@H](NC(=O)CN)C(C)C)C(=O)N[C@@H](Cc1ccccc1)C(=O)N[C@@H](CC(N)=O)C(=O)N[C@@H](C)C(=O)N[C@@H](CC(C)C)C(=O)N[C@@H](CCCCN)C(=O)NCC(=O)N[C@H](C(=O)N[C@@H](C)C(=O)N[C@@H](CCCCN)C(=O)N[C@H](C(=O)N[C@H](C(=O)N[C@@H](C)C(=O)N[C@@H](C)C(=O)N[C@@H](CCC(N)=O)C(=O)N[C@@H](CC(C)C)C(=O)N[C@@H](CC(C)C)C(=O)N[C@@H](CCCCN)C(=O)N[C@@H](CCCCN)C(=O)N[C@@H](C)C(=O)N[C@@H](CCCNC(=N)N)C(=O)N[C@H]1CSSC[C@@H](C(=O)O)NC(=O)[C@H](CO)NC(=O)[C@H](CCCCN)NC(=O)[C@H](CC(=O)O)NC(=O)[C@H](CC(C)C)NC(=O)[C@H](CCCCN)NC1=O)C(C)C)[C@@H](C)O)C(C)C", "organism": "Staphylococcus aureus", "system": "MRSA NCTC 12493, Mueller-Hinton broth", "setting": "with: NaCl 150 mM", "MIC": "2 µM"}
{"SMILES": "c1ccc(CCNC2CCCc3c2[nH]c2ccc(C4CCCCC4)cc32)cc1 (centres unmarked)", "organism": "Staphylococcus aureus", "assay": "broth microdilution", "system": "SA113, cation-adjusted MHB", "MIC": "4 µg/mL"}
{"SMILES": "COc1ccc(C2=[N+]([O-])c3ccccc3N3CCN=C23)cc1", "organism": "Porphyromonas asaccharolytica", "MIC": "≤ 0.06 µg/mL"}
{"SMILES": "CCCCc1ccc(-c2nc(C)c(C(C)=NNC(=N)N)s2)cc1", "organism": "Staphylococcus aureus", "system": "NRS107 MRSA", "MIC": "2.6 µg/mL"}
{"SMILES": "C[N+]1=C2C(c3ccc([N+](=O)[O-])cc3)=[N+]([O-])c3ccccc3N2CCC1", "organism": "Porphyromonas asaccharolytica", "MIC": "0.25 µg/mL"}
{"SMILES": "CC1C(=NOCc2cn(-c3ccccc3)nn2)C(C)C(c2ccc(Br)cc2)OC1c1ccc(Br)cc1 (centres unmarked)", "organism": "Aspergillus niger", "assay": "microbial growth", "MIC": "6.3 µg/mL"}
{"SMILES": "C[N+]1=C2C(c3ccc(Cl)cc3)=[N+]([O-])c3ccccc3N2CCC1", "organism": "Finegoldia magna", "MIC": "> 16 µg/mL"}
{"SMILES": "N#Cc1ccc(-c2c[nH]c(CNC(=O)Nc3ncc(Sc4ccccn4)s3)n2)cc1", "organism": "Bacteroides fragilis", "assay": "broth microdilution", "system": "ATCC 25285", "setting": "without verapamil", "MIC": "> 128 µM"}
{"SMILES": "CC(C)C[C@H](NC(=O)[C@H](CCCNC(=N)N)NC(=O)[C@H](CCC(N)=O)NC(=O)[C@H](Cc1c[nH]cn1)NC(=O)[C@@H](NC(=O)[C@H](CCCCN)NC(=O)[C@H](CC(C)C)NC(=O)[C@H](CCC(=O)O)NC(=O)[C@H](CO)NC(=O)[C@H](CCCNC(=N)N)NC(=O)[C@@H](N)CO)C(C)C)C(=O)N[C@@H](Cc1ccccc1)C(N)=O", "organism": "Candida parapsilosis", "assay": "broth microdilution", "system": "RPMI MOPS-buffered", "MIC": "> 400 µg/mL"}
{"SMILES": "OB(O)c1cnn(-c2cc(Cl)ncn2)c1", "organism": "Klebsiella aerogenes", "assay": "bacterial growth", "system": "AmpC-overproducing clinical isolate", "setting": "cefotaxime alone", "MIC": "4 µg/mL"}
{"SMILES": "CN[C@@H]1[C@H](O)[C@H](NC)[C@H]2O[C@]3(O)[C@H](O[C@@H]2[C@H]1O)O[C@H](C)C[C@@]3(O)CNCc1ccc(F)cc1", "organism": "Moraxella catarrhalis", "system": "ATCC 25238", "MIC": "3 µg/mL"}
{"SMILES": "[O-][N+]1=C(c2ccc(Cl)cc2)C2=NCCCCN2c2ccccc21", "organism": "Finegoldia magna", "MIC": "0.25 µg/mL"}
{"SMILES": "CC[C@H](C)[C@H](NC(=O)[C@H](CC(C)C)NC(=O)[C@H](C)NC(=O)[C@H](CO)NC(=O)[C@H](CCCNC(=N)N)NC(=O)[C@@H](N)CO)C(=O)N[C@H](C(=O)N[C@@H](Cc1c[nH]cn1)C(=O)N[C@@H](CCC(N)=O)C(=O)N[C@@H](CCCNC(=N)N)C(=O)N[C@@H](CC(C)C)C(=O)N[C@@H](Cc1ccccc1)C(N)=O)C(C)C", "organism": "Candida parapsilosis", "assay": "broth microdilution", "system": "RPMI MOPS-buffered", "MIC": "> 400 µg/mL"}
{"SMILES": "CC[C@H](C)[C@H](NC(=O)CNC(=O)[C@H](CCCCN)NC(=O)[C@H](C)NC(=O)[C@H](CCC(=O)O)NC(=O)[C@H](Cc1ccccc1)NC(=O)[C@H](CO)NC(=O)[C@H](CC(C)C)NC(=O)[C@@H](NC(=O)[C@H](CC(=O)O)NC(=O)[C@H](C)NC(=O)[C@@H](NC(=O)[C@@H](N)C(C)C)[C@@H](C)O)C(C)C)C(=O)N[C@@H](C)C(=O)N[C@H](C(=O)N[C@@H](CC(N)=O)C(=O)N[C@@H](Cc1c[nH]cn1)C(=O)N[C@@H](CO)C(=O)N[C@@H](C)C(=O)N[C@H]1CSSC[C@@H]2NC(=O)[C@H](C(C)C)NC(=O)CNC(=O)[C@H](CC(N)=O)NC(=O)[C@H](CCC(N)=O)NC(=O)[C@H](C)NC(=O)[C@H](CO)NC(=O)CNC(=O)CNC(=O)[C@H](CCCCN)NC(=O)[C@H](CCCCN)NC(=O)[C@H](CCCNC(=N)N)NC(=O)[C@H](CC(C)C)NC(=O)[C@H](C)NC(=O)[C@H]([C@@H](C)CC)NC(=O)[C@H](CSSC[C@@H](C(=O)N[C@@H](CCCNC(=N)N)C(=O)N[C@@H](CC(N)=O)C(=O)O)NC(=O)[C@H](C(C)C)NC2=O)NC(=O)[C@H](Cc2c[nH]cn2)NC(=O)[C@H](CC(C)C)NC(=O)[C@H](C)NC1=O)C(C)C", "organism": "Gram-negative and Gram-positive bacteria", "setting": "highest tested 100 µM", "MIC": "> 100 µM"}
{"SMILES": "CC1C(=NNC(=O)c2ccncc2)C(C)C(c2ccc(Cl)cc2)OC1c1ccc(Cl)cc1 (centres unmarked)", "organism": "Aspergillus niger", "assay": "microbial growth", "MIC": "25 µg/mL"}
{"SMILES": "CC[C@H](C)[C@H](NC(=O)[C@H](CCCCN)NC(=O)[C@H](CCCCN)NC(=O)[C@H](Cc1ccccc1)NC(=O)[C@H](Cc1ccccc1)NC(=O)[C@H](CCCCN)NC(=O)[C@H](CCCCN)NC(=O)[C@H](Cc1ccccc1)NC(=O)[C@H](CCCNC(=N)N)NC(=O)[C@@H](N)CCCCN)C(=O)N[C@@H](CCCCN)C(=O)N[C@@H](CCCCN)C(=O)N[C@@H](CO)C(=O)N[C@H](C(=O)N[C@@H](CCCCN)C(=O)N[C@@H](CCCCN)C(=O)N[C@@H](CCCNC(=N)N)C(=O)N[C@H](C(=O)N[C@@H](CCCCN)C(=O)N[C@@H](CCCCN)C(=O)N[C@@H](CC(C)C)C(=O)N[C@@H](Cc1ccccc1)C(=O)N[C@@H](CCCCN)C(=O)N[C@@H](CCCCN)C(=O)N1CCC[C@H]1C(=O)N[C@@H](CCCNC(=N)N)C(=O)N[C@H](C(=O)N[C@H](C(=O)N1CCC[C@H]1C(=O)N[C@H](C(=O)N[C@@H](CO)C(=O)N[C@H](C(=O)N1CCC[C@H]1C(=O)N[C@@H](Cc1ccccc1)C(=O)O)[C@@H](C)CC)[C@@H](C)CC)[C@@H](C)CC)C(C)C)C(C)C)C(C)C", "organism": "gram-negative bacteria", "assay": "agar dilution", "system": "clinical isolates", "setting": "summary range", "MIC": "8 to 32 µg/mL"}
{"note": "A few entries again:"}
{"SMILES": "CC1C(=NNC(=O)c2ccncc2)C(C)C(c2ccc(Cl)cc2)OC1c1ccc(Cl)cc1 (centres unmarked)", "organism": "Aspergillus niger", "assay": "microbial growth", "MIC": "25 µg/mL"}
